Measurements gathered from unrelated publications.
Parts stem from different laboratories: compare values within a part only. Substitutions count along the parent as printed.
Sequence of UniProt P28335 (whole entry, looked up): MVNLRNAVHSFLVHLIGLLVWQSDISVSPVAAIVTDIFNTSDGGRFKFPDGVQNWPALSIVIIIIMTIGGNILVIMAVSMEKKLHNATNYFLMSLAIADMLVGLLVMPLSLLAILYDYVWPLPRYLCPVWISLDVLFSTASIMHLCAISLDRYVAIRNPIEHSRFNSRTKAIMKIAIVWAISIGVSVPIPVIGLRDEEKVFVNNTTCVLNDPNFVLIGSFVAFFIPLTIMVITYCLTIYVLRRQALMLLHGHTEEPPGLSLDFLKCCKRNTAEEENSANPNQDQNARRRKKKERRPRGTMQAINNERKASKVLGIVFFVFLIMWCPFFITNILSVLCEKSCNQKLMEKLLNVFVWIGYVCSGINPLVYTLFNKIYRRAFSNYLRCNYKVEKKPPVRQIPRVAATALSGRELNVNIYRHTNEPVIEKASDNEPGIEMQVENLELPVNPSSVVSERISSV

Set 1 — target: CCNE2, cyclin fold, Cln2 fusion (human); technique: yeast growth competition, sequencing; medium: yeast; setting: strong parent motif; relative to: not given; reading: higher = stronger binding; starting sequence: viral docking peptide; KGVKRKLFAEDSS
Variant | normalised enrichment score
KGVKRKLFREDSS [A9R] | 6.41
KGVKRGLFAEDSS [K6G] | 1.02
KGVKRKLFAETSS [D11T] | 6.43
KGVKRKLFWEDSS [A9W] | 6
KGVKRKWFAEDSS [L7W] | 0.0528
KGVKRKLFCEDSS [A9C] | 6.81
KGVKRKLFAEVSS [D11V] | 6.24
KGVMRKLFAEDSS [K4M] | 3.42

Set 2 — target: vanadate, free oxyanion; technique: microfluidic competitive inhibition; medium: in vitro, cell-free expressed; concentration: not given; reading: lower = stronger binding
Setting: derived from inhibition constants, unchanged parent 676 nM
Starting sequence: PafA, mature enzyme, eGFP fusion (Elizabethkingia meningoseptica, UniProt Q9KJX5); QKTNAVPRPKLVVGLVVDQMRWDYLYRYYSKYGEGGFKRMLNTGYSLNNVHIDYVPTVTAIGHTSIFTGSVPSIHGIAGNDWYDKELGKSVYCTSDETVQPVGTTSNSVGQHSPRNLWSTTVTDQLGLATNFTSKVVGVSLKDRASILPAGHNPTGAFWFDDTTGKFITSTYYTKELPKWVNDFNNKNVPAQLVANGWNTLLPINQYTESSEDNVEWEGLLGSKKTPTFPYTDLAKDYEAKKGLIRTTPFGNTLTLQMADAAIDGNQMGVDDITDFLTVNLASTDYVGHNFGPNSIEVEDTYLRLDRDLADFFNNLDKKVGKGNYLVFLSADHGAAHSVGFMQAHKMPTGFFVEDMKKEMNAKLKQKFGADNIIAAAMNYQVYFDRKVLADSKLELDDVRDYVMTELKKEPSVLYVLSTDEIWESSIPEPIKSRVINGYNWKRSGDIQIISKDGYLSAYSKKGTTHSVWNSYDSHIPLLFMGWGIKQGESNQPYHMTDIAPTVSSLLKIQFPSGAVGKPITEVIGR
Variant | oxyanion analog dissociation constant [nM]
N324G | 878
G488V | 778
G88V | 708
V189G | 588
N315V | 808
L193V | 581
L394V | 799
E421G | 615

Set 3 — effect on: binding; technique: phage display NGS; molecule type: peptide; relative to: input library
Target: UDP-N-acetylglucosamine--peptide N-acetylglucosaminyltransferase 110 kDa subunit (OGT, Homo sapiens, UniProt O15294)
Sequence of UniProt O15294 (whole entry, looked up): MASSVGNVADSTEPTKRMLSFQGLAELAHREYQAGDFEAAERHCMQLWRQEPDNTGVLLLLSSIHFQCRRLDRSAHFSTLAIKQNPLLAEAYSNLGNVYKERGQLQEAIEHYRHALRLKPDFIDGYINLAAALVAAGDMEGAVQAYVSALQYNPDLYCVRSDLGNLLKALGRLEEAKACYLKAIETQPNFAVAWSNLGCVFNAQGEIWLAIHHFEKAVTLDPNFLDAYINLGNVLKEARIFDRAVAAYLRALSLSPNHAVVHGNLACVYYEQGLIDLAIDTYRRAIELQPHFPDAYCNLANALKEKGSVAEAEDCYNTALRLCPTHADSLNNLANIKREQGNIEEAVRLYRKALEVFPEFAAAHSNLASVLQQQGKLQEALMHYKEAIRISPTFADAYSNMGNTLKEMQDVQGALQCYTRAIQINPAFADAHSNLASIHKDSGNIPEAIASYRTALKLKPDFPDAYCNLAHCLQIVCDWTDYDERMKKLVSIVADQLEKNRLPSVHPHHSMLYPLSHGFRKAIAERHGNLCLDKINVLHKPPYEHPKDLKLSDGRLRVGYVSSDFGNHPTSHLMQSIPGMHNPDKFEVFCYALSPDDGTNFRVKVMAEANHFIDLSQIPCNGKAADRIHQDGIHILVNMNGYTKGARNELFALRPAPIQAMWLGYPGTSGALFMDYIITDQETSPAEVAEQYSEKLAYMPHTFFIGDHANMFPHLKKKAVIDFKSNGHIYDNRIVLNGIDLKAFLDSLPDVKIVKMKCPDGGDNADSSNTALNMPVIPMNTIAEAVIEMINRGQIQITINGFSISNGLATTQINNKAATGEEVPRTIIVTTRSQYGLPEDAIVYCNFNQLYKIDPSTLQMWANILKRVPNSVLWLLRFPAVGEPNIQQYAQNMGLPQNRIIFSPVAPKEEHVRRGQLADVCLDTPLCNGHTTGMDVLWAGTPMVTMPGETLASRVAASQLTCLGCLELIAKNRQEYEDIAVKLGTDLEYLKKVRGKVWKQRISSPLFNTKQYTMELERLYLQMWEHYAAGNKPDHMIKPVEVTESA
Molecule | minimum log2 enrichment ratio
GADYLPKYQVVYNVR | 2.97
AHHSAWAPKYLINI | 3.43
HSPHGTGWMQGHNAH | 3.28
YPMHNHHVMYDFHAD | 1.98
TFEHWYWTDTTYKHH | 2.4
IERDNQYHPMYIIDI | 2.35
TEVPPQYIIEYWKLD | 2.43
HQQHSMHFKWNIIQA | 1.91

Other studies, line by line
Structure (SMILES) | target | effect on | concentration | quantity | result
Cc1c[nH]c2nccc(Oc3c(F)cc(Nc4cc(Cl)nc(N)n4)cc3F)c12 | 5-hydroxytryptamine receptor 2C (HTR2C, Homo sapiens, UniProt P28335) | ligand displacement | 10 µM | inhibition | 22.1%

Repeated from above (set 1):
Variant | normalised enrichment score
KGVKRKLFREDSS [A9R] | 6.41
KGVKRKLFAETSS [D11T] | 6.43
